Measured values from different studies.
A part holds a random share of what one study measured. Changes are numbered by the printed parent chain.

Study 1 — target: CCNE1, cyclin fold, Cln2 fusion (human); technique: yeast growth competition, sequencing; sample: yeast; setting: weak parent motif; baseline: not given; reading: higher = stronger binding
Parent: ORC1 docking peptide (human); PRARKRLELGNLG
Variant | normalised enrichment score
PRARKRLELGNLS [G13S] | 0.742
PRAKKRLELGNLG [R4K] | -0.217
PRAYKRLELGNLG [R4Y] | 0.246
PQARKRLELGNLG [R2Q] | 0.148
PRARKRLELGNIG [L12I] | 0.0529
LRARKRLELGNLG [P1L] | 0.252
PRARHRLELGNLG [K5H] | 0.61
PRARKRLELGNPG [L12P] | 0.765
PRHRKRLELGNLG [A3H] | 0.938
PRARKRLELVNLG [G10V] | 0.0417
RRARKRLELGNLG [P1R] | 0.806
PRARKFLELGNLG [R6F] | 0.927
PRARKRLEDGNLG [L9D] | -0.0788
PRSRKRLELGNLG [A3S] | 0.79
PRKRKRLELGNLG [A3K] | -0.331
PRARLRLELGNLG [K5L] | 0.297
PRARKRLELGPLG [N11P] | 1.23

Study 2 — technique: RNA Bind-n-Seq; form: RNA; sample: in vitro; tested at: 365 nM; baseline: no-protein control; reading: higher = stronger binding
Target: RNA binding protein fox-1 homolog 2, RRM domain, GST-SBP tag (RBFOX2, Homo sapiens, UniProt O43251-10, residues 100-194)
Setting: natural RNA segment, single round, ends assumed
Constant ends, left off below: GGGAGUUCUACAGUCCGACGAUC … UGGAAUUCUCGGGUGCCAA
Construct (chain): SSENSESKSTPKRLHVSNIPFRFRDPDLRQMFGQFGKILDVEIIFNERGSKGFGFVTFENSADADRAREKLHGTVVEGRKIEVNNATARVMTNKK
Sequence | RBNS enrichment (R)
CUGCCUCAAGGCUUGGUUCCUGGAAAGUAAAGGUGAAAACAUCCCCUUUCACCCCUCUGCAAAACAAACAAGCAACAUCCUCAAAACCCAACCCCAUGCCUCACAGAGCU | 0.436
UUAACUCUAGAAUCCCGUGUGCCCUUCUUGCUCACCGAACGUGAGAGUAUGGGCUGAGCAGGGGGAUUGAAUGUGACUGUUAAAAACACUCAUGUACUGUCCAAAAGUGC | 0.439
ACUUGAUACUUAUGUAGAAUCCAUCGUGGGCUGAUGCAAGCCCUUUAUUUAGGCUUAGUGUUGUGGGCACCAAUGUCGAGCAUCGUUGUGACUUGUGCUGUAUGAUUCUC | 2.2
GUCACUUUCCAUAUUAUACCCUCUAUAAAGUUGUCGAAUUGGAUGGGAGUUCUUUCUAACUAGCCAUCACACCUGUAGCUUUAGUUGCUUUGUGUGGCUUCUGGCCUAGC | 0.674
CCAAUGUCUUGAUGCAUGCACUGUUCCCCCUGUGCAGCCGCUGAGCGAGGAGAUGCUCCUUGGGCCCUUUGAGUGCAGUCCUGAUCAGAGCCGUGGUCCUUUGGGGUGAA | 7.9
AUGUUUCAGAUGUUUAUUUGUAUAAUUACUUGAUUCACACAGUGAGAAAAAAUGAAUGUAUUCCUGUUUUUGAAGAGAAGAAUAAUUUUUUUUUUCUCUAGGGAGAGGUA | 0.545
CUGCUCCUCCAGGCUGUAUAGACCUGCCCUCUUGCAUUAAACAACUUCUCUUGAGCUGCAACUUUCAGCCAAGCCCAGCAACCUCUUUGCAUACCUAAGGCCAGUUCCCU | 2.18
GGAGGAAGACCCUCAGUUAUUUUGUCACCCAACCUGGCAUAGGACUCUUUGGUCCUACCCGCUUCCCAUCACCGGAGGAGCUUCCCCGGCCGGGAGACCAGUGUUAGAGG | 0.2
GAAUCAGUCCCCUGUGGAUACCAAGGUACAACUGUAUUUAUUAACGCUUACUAGAUGUGAGGAGAGUCUGAAUAUUUUCAGUGAUCUUGGCUGUUUCAAAAAAAUCUAUU | 0.623
UUGUUUUUCUACCUCCCGCACUUAUUUCUUGUAGAGCUUGUGGUUUCAUGAGCUGAUAAUGAAUUCUCCAAGAUGCCUAUUAGAUUUUCUUUAUAGAUGUGGUGAGUCUU | 0.557
GGCCUCCUCUCGCCUGGCCGCCAGCCCCAGCCCCAGCCCCAGCCCCAGGCCCAGCUGCCUUUGGCUUUGAUCUCAAGUCAGGCUGAAGGCAGCGAAGCCUCGGGGCCCAA | 0.168
GAGUGGGUAGGGCAAAAAGAGCCCUUUCCGCCCUCUACCCAUCUAAUUCUGAUCCUCUACCUGUAGGAGGACUUUGGUGUGAUCAUCCUUCUCCCAGGGCCCGGCUACCC | 0.253

Study 3 — technique: universal PBM; form: double-stranded DNA, one strand shown; sample: in vitro; tested at: 600 nM; reading: higher = stronger binding
Target: Sal-like protein 4, full length isoform A (SALL4, Homo sapiens, UniProt Q9UJQ4, residues 1-1053)
Chain of UniProt Q9UJQ4 (whole entry, looked up): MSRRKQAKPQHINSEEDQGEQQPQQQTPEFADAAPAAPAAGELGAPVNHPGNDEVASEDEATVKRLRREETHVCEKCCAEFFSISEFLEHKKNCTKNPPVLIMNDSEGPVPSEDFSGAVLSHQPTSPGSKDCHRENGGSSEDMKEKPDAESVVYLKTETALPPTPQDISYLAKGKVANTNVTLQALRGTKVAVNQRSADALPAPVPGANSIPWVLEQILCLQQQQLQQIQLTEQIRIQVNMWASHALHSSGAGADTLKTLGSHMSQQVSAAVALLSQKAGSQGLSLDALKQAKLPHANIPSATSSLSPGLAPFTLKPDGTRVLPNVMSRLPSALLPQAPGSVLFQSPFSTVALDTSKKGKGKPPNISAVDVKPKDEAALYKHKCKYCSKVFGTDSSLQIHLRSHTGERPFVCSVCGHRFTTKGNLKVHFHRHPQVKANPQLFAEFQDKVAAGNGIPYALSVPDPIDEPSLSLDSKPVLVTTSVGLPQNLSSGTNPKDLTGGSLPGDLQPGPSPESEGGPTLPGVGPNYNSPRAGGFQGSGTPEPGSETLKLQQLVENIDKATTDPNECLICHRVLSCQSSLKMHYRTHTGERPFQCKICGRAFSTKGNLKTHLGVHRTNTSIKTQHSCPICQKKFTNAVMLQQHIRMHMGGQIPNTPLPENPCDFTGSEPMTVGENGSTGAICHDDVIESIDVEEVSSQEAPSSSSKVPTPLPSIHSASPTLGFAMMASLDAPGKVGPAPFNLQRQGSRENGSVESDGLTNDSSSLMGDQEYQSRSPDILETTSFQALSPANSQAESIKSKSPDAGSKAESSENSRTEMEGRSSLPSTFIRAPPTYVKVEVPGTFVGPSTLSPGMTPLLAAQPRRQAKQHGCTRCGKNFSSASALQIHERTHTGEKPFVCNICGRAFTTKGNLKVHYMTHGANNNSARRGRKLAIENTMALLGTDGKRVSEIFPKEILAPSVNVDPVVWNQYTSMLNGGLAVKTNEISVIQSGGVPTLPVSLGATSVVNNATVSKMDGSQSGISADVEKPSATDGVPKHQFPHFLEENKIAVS
Setting: 8-mer, flanks averaged, mean of replicates
Sequence | E-score
CCAAAGTA | 0.103
CGACGTCA | -0.269
GGAGTCGA | -0.22
AAGAGAGA | 0.0178
ATGGGGTC | -0.287
CCAGTCGG | -0.233
ATCCTCGA | -0.00732
AAAGACGC | -0.126
ACAGGCGT | -0.18
ACGGGATG | -0.243
GGTTGTAA | 0.145
AACGCCAC | -0.267
CCGTAACG | -0.238
AACGCTAC | 0.0336
ATTTTTCC | 0.278
ACAAATGG | 0.0678
CGCGACCC | -0.284
CCGCATAG | 0.0215
CGTTAGGA | -0.061
GGCTACAA | -0.0576

Study 4 — technique: DHFR PCA, deep sequencing; sample: yeast; together with: (+)-ABA 4.8 µM; baseline: wild-type fitted maximum; reading: higher = stronger binding
Target: ABI1, truncated, D143A, DHFR fusion (Arabidopsis thaliana)
Setting: methotrexate growth selection, single substitutions
Parent: PYL1, truncated, DHFR fusion (Arabidopsis thaliana); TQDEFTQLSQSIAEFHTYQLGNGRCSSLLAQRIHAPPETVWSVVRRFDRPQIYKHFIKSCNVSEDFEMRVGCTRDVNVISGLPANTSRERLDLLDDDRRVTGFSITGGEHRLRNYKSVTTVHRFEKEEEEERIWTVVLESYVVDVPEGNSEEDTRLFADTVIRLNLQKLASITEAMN; partner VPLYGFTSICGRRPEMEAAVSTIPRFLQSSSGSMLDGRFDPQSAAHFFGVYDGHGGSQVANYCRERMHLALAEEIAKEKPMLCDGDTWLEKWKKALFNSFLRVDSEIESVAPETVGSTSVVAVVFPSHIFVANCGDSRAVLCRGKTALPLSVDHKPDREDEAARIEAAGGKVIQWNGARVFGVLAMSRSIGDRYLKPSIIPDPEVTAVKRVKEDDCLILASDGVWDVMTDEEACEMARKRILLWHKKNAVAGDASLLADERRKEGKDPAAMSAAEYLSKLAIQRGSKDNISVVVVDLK
Variant | relative binding score
K58N | 33.8%
A35W | -2.69%
F47Y | 5.39%
Q7N | 68.9%
E174R | 11.3%
L94P | 7.31%
V142T | 76.3%
F56Y | 27.8%
L156T | 85.4%
S117K | -5.94%
R90V | 56.7%
D92A | 7.25%
H55Q | 94.2%
L94F | 78.8%
E147V | 61.6%
T101H | -0.356%
R163P | -1.26%
R99Q | 59.6%
E130V | 72.6%

Study 5 — technique: protein-binding microarray; form: double-stranded DNA, one strand shown; sample: in vitro; tested at: 2200 nM top; setting: 60-bp whole probe; together with: salmon DNA 0.4 mg/ml; baseline: random background probes; reading: higher = stronger binding; constant ends, left off below: GCCTAGCAC … GTCTTGATTCGCTTGACGCTGCTG
Target: Interferon regulatory factor 7, full length, phosphomimetic (IRF7, Homo sapiens, UniProt Q92985, residues 1-503, S471D/S472D/S475D/S476D/S477D/S483D/S484D/S487D)
Target sequence (chain): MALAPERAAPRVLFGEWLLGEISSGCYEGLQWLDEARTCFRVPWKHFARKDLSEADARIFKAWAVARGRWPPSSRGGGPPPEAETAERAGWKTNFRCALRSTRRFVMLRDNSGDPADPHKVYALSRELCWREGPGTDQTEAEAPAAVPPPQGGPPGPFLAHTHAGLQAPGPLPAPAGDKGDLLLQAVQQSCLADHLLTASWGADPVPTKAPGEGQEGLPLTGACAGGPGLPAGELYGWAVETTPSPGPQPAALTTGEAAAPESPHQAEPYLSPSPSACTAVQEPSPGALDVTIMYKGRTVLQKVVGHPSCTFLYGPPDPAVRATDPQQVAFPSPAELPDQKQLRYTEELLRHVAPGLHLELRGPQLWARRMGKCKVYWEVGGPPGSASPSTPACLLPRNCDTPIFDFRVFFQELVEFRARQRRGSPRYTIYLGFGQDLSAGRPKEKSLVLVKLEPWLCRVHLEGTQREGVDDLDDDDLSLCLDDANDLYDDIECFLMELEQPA
Sequence | fitted relative affinity [z-score]
TCAAATTTCCCACTTTCACTGTGCTAG | 3.47
TTAGGAGTGGGTCTCGGTTAGTGCTAG | -0.303
TTAGGACTGCTTAGCCTTTAGTGCTAG | -0.624
TTTTTTATCAATCATTTTCGTGTGCTA | 2.4
TCACATTTTCGTTTTTAACTGTGCTAG | 9.07
GTAGGTTTCCTTTTCCTTTAGTGCTAG | 7.11
CGAGATCTCCGAGATGCCTTCGTGCTA | 0.18
GACGTTTTCAGACTGGAGACGTGCTAG | 1.05
GACGGTTTCCGTTTCGGGACGTGCTAG | 6.97
TGAGGTATCGGTATCGGTTAGTGCTAG | 0.6
CTGCCCTGGTTCCCCTGCCTGTGCTAG | -0.081
CTAATATTCATTTTATTCAAGTGCTAG | 1.21
TTAGGTCTCCTACGGCTTTAGTGCTAG | 0.282
GACGGTTTCCACACTGGGGACGTGCTA | 1.25
GACGATTTCGGTATCGAGACGTGCTAG | 3.43
CCCAATTGTCTTTTCACTTTGTGCTAG | 3.32
TTAGGTATCGGTCTCGGTCAGTGCTAG | 0.544

For quick reference, copied from above (study 3):
Sequence | E-score
GGTTGTAA | 0.145
CGTTAGGA | -0.061
AAAGACGC | -0.126
CGACGTCA | -0.269
GGAGTCGA | -0.22
CCGCATAG | 0.0215
